Published values from different studies.
Every numbered part comes from another study and shows a few of its results, in no order. Substitutions count along the parent as printed.
UniProt Q9Y2U5, sequence (whole entry, looked up): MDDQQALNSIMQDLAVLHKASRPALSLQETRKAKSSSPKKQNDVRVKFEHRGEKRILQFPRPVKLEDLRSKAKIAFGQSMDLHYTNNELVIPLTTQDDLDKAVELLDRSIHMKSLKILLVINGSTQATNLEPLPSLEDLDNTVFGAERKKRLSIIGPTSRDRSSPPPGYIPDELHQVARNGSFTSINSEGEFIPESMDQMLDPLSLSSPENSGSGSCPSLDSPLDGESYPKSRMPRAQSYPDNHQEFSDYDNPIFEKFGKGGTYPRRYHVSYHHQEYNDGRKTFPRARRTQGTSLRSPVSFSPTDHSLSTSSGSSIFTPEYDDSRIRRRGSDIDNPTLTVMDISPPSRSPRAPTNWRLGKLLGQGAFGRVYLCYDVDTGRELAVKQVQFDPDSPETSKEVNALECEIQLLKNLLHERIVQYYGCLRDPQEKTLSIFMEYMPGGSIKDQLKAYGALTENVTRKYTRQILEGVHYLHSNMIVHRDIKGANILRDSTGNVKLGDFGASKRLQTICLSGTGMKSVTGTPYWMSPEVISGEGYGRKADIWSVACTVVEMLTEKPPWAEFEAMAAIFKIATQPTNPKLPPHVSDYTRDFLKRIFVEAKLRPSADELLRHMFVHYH

Set 1
Molecule: AAAVRKPIVLKR
Method: competitive growth deep sequencing
Form: peptide
Concentration: concentration not given
Reading: direction not given
Quantity: growth enrichment score
yeast with cyclin B3-Cln2 chimera; cell growth, binder; peptide tiling library: -0.246
Saccharomyces cerevisiae; binding; cyclin E1-Cln2 fusion strain; tiling library, Cln2 subtracted: 0.125
yeast with cyclin E2-Cln2 chimera; cell growth, binder; peptide tiling library: -0.459
Saccharomyces cerevisiae; binding; cyclin E1-Cln2 fusion strain; peptide tiling library: 0.125
Saccharomyces cerevisiae; binding; cyclin D3-Cln2 fusion strain; peptide tiling library: -0.127
Saccharomyces cerevisiae; binding; cyclin D3-Cln2 fusion strain; tiling library, Cln2 subtracted: -0.127
yeast with cyclin F-Cln2 chimera; cell growth, binder; peptide tiling library: -0.0959

Set 2
Target: vanadate, free oxyanion
Method: microfluidic competitive inhibition
Sample: in vitro, cell-free expressed
Concentration: not given
Notes: derived from inhibition constants, unchanged parent 676 nM
Reading: lower = stronger binding
Quantity: oxyanion analog dissociation constant
Starting sequence: PafA, mature enzyme, eGFP fusion (Elizabethkingia meningoseptica, UniProt Q9KJX5); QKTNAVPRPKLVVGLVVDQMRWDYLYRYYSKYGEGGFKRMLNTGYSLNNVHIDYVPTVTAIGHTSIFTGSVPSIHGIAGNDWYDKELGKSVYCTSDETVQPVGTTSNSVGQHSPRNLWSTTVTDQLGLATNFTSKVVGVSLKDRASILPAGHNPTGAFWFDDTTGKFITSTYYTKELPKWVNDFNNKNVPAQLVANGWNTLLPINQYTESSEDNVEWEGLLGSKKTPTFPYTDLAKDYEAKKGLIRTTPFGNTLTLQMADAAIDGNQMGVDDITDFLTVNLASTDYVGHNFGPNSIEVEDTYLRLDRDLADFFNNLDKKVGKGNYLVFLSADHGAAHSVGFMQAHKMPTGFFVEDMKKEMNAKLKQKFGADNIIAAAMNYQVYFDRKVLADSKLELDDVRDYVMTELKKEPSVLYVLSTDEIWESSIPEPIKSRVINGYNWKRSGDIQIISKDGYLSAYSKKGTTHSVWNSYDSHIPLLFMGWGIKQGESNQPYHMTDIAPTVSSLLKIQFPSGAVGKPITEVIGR
G88A: 543 nM
D311V: 868 nM
V413G: 1.33 µM
K241G: 672 nM
T133V: 548 nM
L479G: 500 nM
I263G: 2.61 µM
N116V: 896 nM

Other studies, line by line
OGT: UDP-N-acetylglucosamine--peptide N-acetylglucosaminyltransferase 110 kDa subunit (OGT, Homo sapiens, UniProt O15294)
UniProt O15294, sequence (whole entry, looked up): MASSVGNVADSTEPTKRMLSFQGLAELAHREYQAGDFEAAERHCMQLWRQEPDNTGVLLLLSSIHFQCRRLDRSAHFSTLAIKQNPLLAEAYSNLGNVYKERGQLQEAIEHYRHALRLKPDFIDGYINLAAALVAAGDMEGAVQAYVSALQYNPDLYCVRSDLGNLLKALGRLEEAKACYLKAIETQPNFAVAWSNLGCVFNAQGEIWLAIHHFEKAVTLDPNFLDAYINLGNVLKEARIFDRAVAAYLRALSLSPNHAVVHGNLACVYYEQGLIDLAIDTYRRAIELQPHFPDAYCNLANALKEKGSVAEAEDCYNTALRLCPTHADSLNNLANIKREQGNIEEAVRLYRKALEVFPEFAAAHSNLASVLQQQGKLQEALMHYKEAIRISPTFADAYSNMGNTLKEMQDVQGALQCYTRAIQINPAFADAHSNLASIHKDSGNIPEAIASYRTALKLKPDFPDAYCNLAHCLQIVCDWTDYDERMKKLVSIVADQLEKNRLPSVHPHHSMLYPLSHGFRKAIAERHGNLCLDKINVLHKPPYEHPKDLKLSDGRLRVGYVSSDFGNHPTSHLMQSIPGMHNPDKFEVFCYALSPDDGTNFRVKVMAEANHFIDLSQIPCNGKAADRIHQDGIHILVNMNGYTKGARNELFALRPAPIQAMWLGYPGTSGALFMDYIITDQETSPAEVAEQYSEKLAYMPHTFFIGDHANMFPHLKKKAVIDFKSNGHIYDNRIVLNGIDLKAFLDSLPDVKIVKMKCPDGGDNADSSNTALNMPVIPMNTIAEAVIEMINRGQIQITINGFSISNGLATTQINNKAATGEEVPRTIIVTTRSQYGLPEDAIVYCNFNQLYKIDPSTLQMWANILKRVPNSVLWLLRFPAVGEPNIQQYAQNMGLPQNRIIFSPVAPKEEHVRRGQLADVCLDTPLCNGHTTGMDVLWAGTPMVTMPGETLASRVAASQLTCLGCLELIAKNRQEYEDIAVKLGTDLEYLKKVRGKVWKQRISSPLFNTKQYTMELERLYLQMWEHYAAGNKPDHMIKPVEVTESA
TAPFYPPAYAI  enrichment fold change (OGT; binding, phage display NGS; peptide; concentration not given; baseline: beads alone): 0.589
N/C(=N\[N+](=O)[O-])N/N=C\c1ccc(-c2cccc([N+](=O)[O-])c2)o1  remaining activity (MAP3K2 (Homo sapiens, UniProt Q9Y2U5); enzyme activity, inhibitor; 0.5 µM; baseline: control): 97%
TAPFYPPAYQI  enrichment fold change (OGT; binding, phage display NGS; peptide; concentration not given; baseline: beads alone): 1

Repeated from above (set 2):
L479G: 500 nM
I263G: 2.61 µM
N116V: 896 nM
